Assay results gathered from unrelated publications.
Parts stem from different laboratories: compare values within a part only. Substitutions count along the parent as printed.

Block 1 — method: RNA Bind-n-Seq; form: RNA; sample: in vitro; tested at: not given; reference: input RNA pool; reading: higher = stronger binding
Target: RING finger protein unkempt homolog, zinc fingers 1-6, GST-SBP tag (UNK, Homo sapiens, UniProt Q9C0B0, residues 30-357)
Notes: RNA with constant flanks, human and mouse sites, ends assumed
Construct (chain): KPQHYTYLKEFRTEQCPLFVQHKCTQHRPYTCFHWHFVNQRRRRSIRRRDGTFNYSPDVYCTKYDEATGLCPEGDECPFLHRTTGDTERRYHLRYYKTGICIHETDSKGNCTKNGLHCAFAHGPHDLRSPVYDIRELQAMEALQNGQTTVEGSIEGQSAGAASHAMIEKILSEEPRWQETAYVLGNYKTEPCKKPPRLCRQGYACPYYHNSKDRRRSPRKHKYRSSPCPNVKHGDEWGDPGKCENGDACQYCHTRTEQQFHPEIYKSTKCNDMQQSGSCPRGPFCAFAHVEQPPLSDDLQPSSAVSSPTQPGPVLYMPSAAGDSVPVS
Strand	bound/input enrichment [ratio]
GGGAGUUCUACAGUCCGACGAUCCGUCUUACUCAACUGCCCCUUUCCUCUCCCUCAGAAUUUGUGUUUGCUGCCUCUAUCUUGUUUUUUGUUUUUUCUUCUGGGGGGGGUCUAGAACAGUGCCUGGCACAUAGUAGGCGCUCACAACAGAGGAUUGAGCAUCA	1.28
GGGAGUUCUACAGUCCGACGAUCGGCAUGGUCAUCCACCAAGUAGAGGCCAAGCCCUCUGUCUAUUUCAUCAAGUUUGAUGACGAUUUCCAUAUUUACGUCUACGAUUUGGUGAAAACAUCCUAGAUGUCAUCACAAACUUUGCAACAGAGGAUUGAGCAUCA	0.0923
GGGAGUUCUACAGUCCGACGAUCCAUGAAGAACGUAGCAAAAAGAGAAAAAAAAGCAAGAGCAGAAGUCGUAGUCAUGAGAGAAAAAGAAGCAAAAGUAAAGAACGGAAAAGAAGUAGAGAUAGAGAAAGGAAAAAGAGCAAACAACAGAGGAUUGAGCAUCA	1.95
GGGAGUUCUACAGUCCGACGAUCGUUCACCAGAUCGAUGCAGUGCUCCUGUCUCAUCCUGAUCCACUCCACCUCGGUGCCCUCCCAUUCGCCGUGGGGAAGCUGGGUCUAAACUGUGCCAUCUAUGCAACAAUUCCUGUGUAUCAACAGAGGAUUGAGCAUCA	0.207
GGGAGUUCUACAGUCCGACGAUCAAUGCAUCUCUUCAAGACCAUAUUUAUCCGAGCUGUUUUGGGAAUACUCCAGAGUGGAAUAGUUCUAAAUUUAUAAGUCUUUGGGGAUCAGAAGUGAUGAAUGAUAAGAACUGGAAUCCUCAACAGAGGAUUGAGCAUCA	0.16
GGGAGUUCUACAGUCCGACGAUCACCACUGGGACACUUCCACCACCAACUUUGUCUGCCUAUCAGCAUUCAUCUACCUUUAGCAAUAGAAACUUUGCGACCACCUCACCUUUGGUGCUUCAAGAUUCAUCUUUUAACACUACACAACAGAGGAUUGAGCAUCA	1.88
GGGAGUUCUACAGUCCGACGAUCGUACCAAAACUAGACUAGGAAUGAUUUCUCUUGAACUCCUGUCAAUAUUUAUUUCCUCCAUCUAUAAUGGACAGUUAGAUGUGGGAUUUUUUGAUUUUACUCCAACUUUUUUUAAAGUGCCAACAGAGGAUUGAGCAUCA	3.02
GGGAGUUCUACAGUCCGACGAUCUCCCUGUGCUUACUAAAUGAUUUGUGAAGAACUGUCCCCAAGUUGUAACCCAUGUACUCCCUUAGAGUUGCUGCAAAAUGUCUCUUAUAUUGAUGUUGUUUGUUUACCUGACUCUCCAUACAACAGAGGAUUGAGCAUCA	1.62
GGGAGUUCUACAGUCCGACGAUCCUCACAGCCUCACGGUUCCCAGCCCCAGCACAGUGGAGGCAGGCGUGGCUGCAUUCCCCUCACGCUACCCUCCCAGCGGCUUGUAGCCGUCACUGGCCAGACCUCCAGGGUGCGGAAUCACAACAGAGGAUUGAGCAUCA	0.138
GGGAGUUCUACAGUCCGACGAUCUGGGAUAAAAGCAAAGCAGAAUCAGCUGUGACCAAACAAGACCAGAUUUCUGCCUCUGAGCUCAGGCAAGCUAAUGGACCAUUGUCAAAUGGUUUGGAAAACCCUGCUACUACUCCUCUACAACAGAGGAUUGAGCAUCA	0.0509
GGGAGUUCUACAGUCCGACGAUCACGCAUCACGGGCACGGGGCGCCAAGGCAUAUUCCCUGCCAGCUACGUGCAGGUGUCUCGUGAACCCCGGCUCCGGCUCUGUGACGACGGCCCCCAGCUCCCCACGUCUCCCCGCCUGACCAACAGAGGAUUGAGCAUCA	0.123

Block 2 — method: protein-binding microarray; form: double-stranded DNA, one strand shown; sample: in vitro; tested at: not given; reading: higher = stronger binding
Target: Max dimerization protein 1, bHLH-zipper, MAX partner unstated (MXD1, Homo sapiens, UniProt Q05195, residues 56-136)
Notes: k-mer, scored over probes, only values ≥0.25
Residues (chain): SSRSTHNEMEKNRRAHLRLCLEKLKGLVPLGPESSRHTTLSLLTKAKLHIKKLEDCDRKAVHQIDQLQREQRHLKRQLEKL
Strand	E-score
GTGTGATA	0.257
ATTACACG	0.314
ATAGCACG	0.37
CACGAGAG	0.296
CATGCTCC	0.373
CAGGAGGG	0.274
CAGGGGGG	0.312
AAGCATGG	0.436
CGCACGCA	0.324
CCCACCCC	0.393
ACACATGG	0.454
ACACATTG	0.356
CACGTTGA	0.428
GTGGCCAC	0.289
GGGACAGA	0.253

Block 3 — target: CCNE1, cyclin fold, Cln2 fusion (human); method: yeast growth competition, sequencing; sample: yeast; notes: weak parent motif; reference: not given; reading: higher = stronger binding
Starting sequence: CABLES2 docking peptide (human); ICAKRSLCAAFSV
Variant	normalised enrichment score
ICAKRSLAAAFSV [C8A]	0.475
ICAKRALCAAFSV [S6A]	0.735
ICAKASLCAAFSV [R5A]	0.327
ICAKRSLCAAFSA [V13A]	0.457
ICAKRSACAAFSV [L7A]	-0.166

Block 4 — method: RNA Bind-n-Seq; form: RNA; sample: in vitro; tested at: 200 nM; notes: whole 134-nt RNA, ends assumed; together with: 150 mM KCl; reference: input library; reading: higher = stronger binding
Target: Ras GTPase-activating protein-binding protein 1, full length (G3BP1, Homo sapiens, UniProt Q13283)
Chain of UniProt Q13283 (whole entry, looked up): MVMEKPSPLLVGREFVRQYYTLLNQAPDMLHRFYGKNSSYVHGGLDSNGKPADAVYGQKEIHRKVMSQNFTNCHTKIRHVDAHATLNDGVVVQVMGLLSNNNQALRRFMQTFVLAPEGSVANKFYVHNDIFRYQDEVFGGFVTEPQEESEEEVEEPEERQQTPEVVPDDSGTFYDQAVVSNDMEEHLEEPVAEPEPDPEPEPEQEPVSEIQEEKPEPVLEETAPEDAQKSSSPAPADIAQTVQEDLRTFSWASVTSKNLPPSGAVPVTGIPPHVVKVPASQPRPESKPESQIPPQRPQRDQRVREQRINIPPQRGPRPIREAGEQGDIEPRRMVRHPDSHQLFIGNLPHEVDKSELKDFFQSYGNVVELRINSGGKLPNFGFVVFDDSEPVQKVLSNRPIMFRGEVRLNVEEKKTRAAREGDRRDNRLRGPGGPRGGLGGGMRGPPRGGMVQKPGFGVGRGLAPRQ
Strand	log2 enrichment
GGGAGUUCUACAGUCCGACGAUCCCUCAAGUCCUGUGCUACACAUCGUAUGUACCGAAUCGGGAGGGGAGGGAGGAAAGUAUUAUGUUACGCCGUUCGGAUCUGCACUUCCAGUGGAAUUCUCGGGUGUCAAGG	0.875
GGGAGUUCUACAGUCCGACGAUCGCAGGAAGUAAAAACAAAUGGAAAUGCUUCGGAUAGUGGCAGGGGUGGGGGUUGCUAAGGAAAGGGUGGGAUGGGAGUGGGUAAAUAGUUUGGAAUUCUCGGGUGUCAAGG	0.65
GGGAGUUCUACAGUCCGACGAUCGCAGGAAGUAAAAACAAAUGGAAAUGCAAAGGAUAGUGGCAGGGGUGGGGGUUGCUAAGGAAAGGGUGGGAUGGGAGUGGGUAAAGAGUUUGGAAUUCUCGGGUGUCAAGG	1.09
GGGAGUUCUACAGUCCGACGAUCUGGCCCUGGUGGCAUGCGGGGAGGAAGAGGUGGCCUCAUGGAACGUGGUGGUCCCGGUGGAAUGUUCAGAGGUGGCCGUGGUGGAGACAGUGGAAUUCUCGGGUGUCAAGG	0.202
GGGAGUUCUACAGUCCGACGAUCUCAAGUCCUGUGCUACACAUCGUAUGUACCGAAUCGGGCCGGCCGGGGCCGGGGAAAGUAUUAUGUUACGCCGUUCGGAUCUGCACUUCCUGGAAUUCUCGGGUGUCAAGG	-0.461
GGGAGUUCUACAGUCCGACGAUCAAGUCCUGUGCUACACAUCGUAUGUACCGAAUCGGGAAAAGGAAAAGGGGAAAAGGAAAGUAUUAUGUUACGCCGUUCGGAUCUGCACUUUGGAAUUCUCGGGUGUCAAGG	-0.695
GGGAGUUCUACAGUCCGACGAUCUCAAGUCCUGUGCUACACAUCGUAUGUACCGAAUCGGUUUUUGGAAAGGAAAGGAAAGUAUUAUGUUACGCCGUUCGGAUCUGCACUUCCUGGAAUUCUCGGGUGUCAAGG	-0.971
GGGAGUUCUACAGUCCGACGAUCUCCUCAAGUCCUGUGCUACACAUCGUAUGUACCGAAUCGGAGGAAAGGAGGAAAGUAUUAUGUUACGCCGUUCGGAUCUGCACUUCCAGCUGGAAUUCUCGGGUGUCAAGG	-0.678
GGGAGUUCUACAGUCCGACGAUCACCAUGCAGGUGGGCAUCUUUGGGAAGUGGGGCAAGGGGGGGAUAGGGAGGGGGAUAACACUUUGGGAACAGGUGGUCCCAGGUCGUUUCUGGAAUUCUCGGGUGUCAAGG	1.62
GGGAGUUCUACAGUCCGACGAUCUCCUCAAGUCCUGUGCUACACAUCGUAUGUACCGAAUCGGGAGGGAGGAGGAAAGUAUUAUGUUACGCCGUUCGGAUCUGCACUUCCAGCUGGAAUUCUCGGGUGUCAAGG	-0.344

Block 5 — method: protein binding microarray; form: double-stranded DNA, one strand shown; sample: in vitro; tested at: not given; reference: not given; reading: higher = stronger binding
Target: Histone acetyltransferase KAT6A, winged helix 1, GST fusion (KAT6A, Homo sapiens, UniProt Q92794, residues 1-85)
Notes: 8-mer, flanks averaged, mean of 2 arrays, mostly near background
Target sequence (chain): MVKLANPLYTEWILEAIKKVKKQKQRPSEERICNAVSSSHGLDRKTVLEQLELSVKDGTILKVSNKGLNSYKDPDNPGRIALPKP
Strand	E-score
CTCCTAGC	-0.0127
CTTGGCGC	0.276
AACACTGA	-0.0716
AAGACGAT	-0.0739
GATGACAC	-0.115
AAAGCTAA	-0.115
GGCAGTTA	-0.0134
AAATCGAA	-0.155
GCGAGCTA	0.00756
GTACATAA	0.0535
GCGTAAAC	0.295
GAGATGGC	-0.172
GGTACCGA	0.211
AGATTAGC	-0.0942
AGAAATTG	-0.282
CCCCTGTA	0.00973
GTGGTGTA	-0.194

Block 6 — method: universal PBM; form: double-stranded DNA, one strand shown; sample: in vitro; tested at: not given; reading: higher = stronger binding
Target: Sal-like protein 4, full length isoform B (SALL4, Homo sapiens, UniProt Q9UJQ4-2, residues 1-616)
Notes: 8-mer, flanks averaged, mean of replicates
Strand	E-score
CAACGACA	0.0171
GTTTGATA	0.213
AACGTGGT	-0.0911
ACTGGAAT	-0.0617
TAAGCGCA	-0.146
AATTCCAG	-0.0709
AAGACCCG	-0.239
GGACAGAA	0.0318
TGTCATAA	0.346
GATAAAAA	0.3
CGAACTAC	-0.0714
CCGTGCAG	-0.144
AAGTAATT	0.355
CATGGGCC	-0.288
AGGTGGGC	-0.292
CAGATAAG	0.0543
GACTCTGC	-0.288
CACTGAGA	-0.121
ATGATAAA	0.362

For quick reference, copied from above (block 1):
Strand	bound/input enrichment [ratio]
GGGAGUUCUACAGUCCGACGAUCGGCAUGGUCAUCCACCAAGUAGAGGCCAAGCCCUCUGUCUAUUUCAUCAAGUUUGAUGACGAUUUCCAUAUUUACGUCUACGAUUUGGUGAAAACAUCCUAGAUGUCAUCACAAACUUUGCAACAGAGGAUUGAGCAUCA	0.0923
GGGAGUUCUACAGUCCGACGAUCUGGGAUAAAAGCAAAGCAGAAUCAGCUGUGACCAAACAAGACCAGAUUUCUGCCUCUGAGCUCAGGCAAGCUAAUGGACCAUUGUCAAAUGGUUUGGAAAACCCUGCUACUACUCCUCUACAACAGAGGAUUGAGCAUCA	0.0509
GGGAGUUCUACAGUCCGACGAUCAAUGCAUCUCUUCAAGACCAUAUUUAUCCGAGCUGUUUUGGGAAUACUCCAGAGUGGAAUAGUUCUAAAUUUAUAAGUCUUUGGGGAUCAGAAGUGAUGAAUGAUAAGAACUGGAAUCCUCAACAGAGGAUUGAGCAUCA	0.16
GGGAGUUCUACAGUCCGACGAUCCUCACAGCCUCACGGUUCCCAGCCCCAGCACAGUGGAGGCAGGCGUGGCUGCAUUCCCCUCACGCUACCCUCCCAGCGGCUUGUAGCCGUCACUGGCCAGACCUCCAGGGUGCGGAAUCACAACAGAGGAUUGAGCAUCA	0.138
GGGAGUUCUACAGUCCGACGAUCGUUCACCAGAUCGAUGCAGUGCUCCUGUCUCAUCCUGAUCCACUCCACCUCGGUGCCCUCCCAUUCGCCGUGGGGAAGCUGGGUCUAAACUGUGCCAUCUAUGCAACAAUUCCUGUGUAUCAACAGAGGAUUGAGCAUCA	0.207
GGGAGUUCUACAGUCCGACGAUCCGUCUUACUCAACUGCCCCUUUCCUCUCCCUCAGAAUUUGUGUUUGCUGCCUCUAUCUUGUUUUUUGUUUUUUCUUCUGGGGGGGGUCUAGAACAGUGCCUGGCACAUAGUAGGCGCUCACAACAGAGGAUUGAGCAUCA	1.28
